Assay results from different studies.
Protocols differ between the studies behind these lines. Values joined by “and” are separate records of one study, mostly repeats; a detail may differ. ± marks the error that the study gave. Converted amounts (≈) assume the structure as drawn.

SMILES | test | system | conditions | how to read | endpoint | result
CCCCCC(=O)[O][Pt]([Cl])([Cl])[O]C(=O)CCCCC.N.N | ICP-MS, refers to: platinum | nude mice, blood | intravenous, 1.76 mg/kg | – | distribution half-life | 10.8 min and 11.2 min
C=C[C@]1(C)C[C@@H](OC(=O)CSc2ccc(NC(=O)c3ccco3)cc2)[C@]2(C)[C@H](C)CC[C@]3(CCC(=O)[C@H]32)[C@@H](C)[C@@H]1O | – | chicken, Mycoplasmoides gallisepticum infected, plasma | intramuscular, 80 mg/kg | – | V2/F | 2.24 L/kg
C=CC(=O)N1CCCC(n2c(=O)c3ncccc3n(Cc3ccc(Oc4ccccc4)cc3)c2=O)C1 (centres unmarked) | – | BALB/c mice, male, plasma | intraperitoneal, 200 mg/kg, 2 h | – | plasma concentration | 48300 ng/mL
COc1cc(-c2cc(=O)c3ccc(OCCCn4c(Cl)nc5ccccc54)cc3o2)cc(OC)c1OC | – | C57BL/J mice, healthy, serum | intravenous, 10 mg/kg every other day, 10 days | – | AST | 203 ± 44.2 U/L
C=CC(=O)Nc1cccc(Cn2ncc3cnc(Nc4cnn(CCOC)c4)nc32)c1 | – | dog, Beagle, both sexes, whole blood | 5 µM, 60 min | – | remaining compound | 64.6%
CCCCN1C(=O)c2cccc3c(NCCCCN4CCOCC4)ccc(c23)C1=O | – | dioxane | – | – | molar extinction coefficient | 6400 M⁻¹ cm⁻¹
[123I]c1ccc2nc(-c3ccc(-n4ccnn4)nc3)cn2c1 | – | male Wistar rat, spleen | intravenous, 4 MBq, 14 h | – | tracer uptake | 0.007 %ID/g
CCc1cnc(NC(=O)c2cc(S(=O)(=O)N3CCOCC3)ccc2N(C)C2CCCC2)s1 | – | mouse | 10 mg/kg, 3 doses | – | mean corpuscular volume | 55.7 fL
CCn1nc(Cl)c2c1-c1cnc(N)c(c1)O[C@H](C)c1cc(F)ccc1-c1nn(C)cc1C2 | – | Balb/c nude mouse, female, plasma | 0.5 mg/kg, single dose, 1 h | – | free plasma concentration | 6.87 nM
CCC(=O)N(C)c1ccc(Cl)c(Cl)c1 | – | female C57BL/6 mice | intravenous, 2 mg/kg, 0.083 h | – | plasma concentration | 771 ng/mL
CCN(CC)c1ccc2c(c1)O[B-]1(c3ccccc3)OC(=O)C(c3ccccc3)=N[N+]1=C2C(C)C (centres unmarked) | – | toluene | – | – | molar absorption coefficient | 47000 M⁻¹ cm⁻¹
CCCC[C@H](OC(C)=O)c1ccccc1C(=O)O | – | Sprague-Dawley rats, both sexes, whole blood | intravenous, 1.25 mg/kg single dose | – | AUC(0-inf) | 1360 ± 190 ng·h/mL
CCCCN1C(=O)c2cccc3c(NCCCCCN4CCOCC4)ccc(c23)C1=O | – | DMSO | – | – | molar extinction coefficient | 8830 M⁻¹ cm⁻¹
C=CC(=O)Nc1cc(Nc2nccc(-c3c[nH]c4ccccc34)n2)c(OC)cc1N(C)CCN(C)C | storage stability | human plasma | 72 h, -80 °C, high QC level | – | recovery | 90.2%
CN(O)C(=O)CCC(=O)NCCCN(CCCCN(CCCNC(=O)CCC(=O)N(C)O)C(=O)CCC(=O)N(C)O)C(=O)CCC(=O)N(C)O.[89Zr] | radio-TLC | aqueous buffer | 3 d, pH 7.2, 37 °C, 89Zr-labelled complex, added: CoCl2 10-fold excess | – | intact complex | 97.8 ± 2%
CN1CCC[C@]1(C)/C=C/S(=O)(=O)NC(=O)Nc1c2c(cc3c1CCC3)CCC2 | refers to: nasopharyngitis, not related | human | oral, 100 mg twice daily, 14 days, multiple ascending dose | – | subjects with adverse event | 0%
CCN(CC)c1ccc2c(c1)O[B-]1(c3ccccc3C#N)OC(=O)C(c3ccccc3)=N[N+]1=C2CC(C)C (centres unmarked) | – | toluene | – | – | molar absorption coefficient | 49000 M⁻¹ cm⁻¹
N=C(N)NCCC[C@@H]1NC(=O)[C@H](CO)NC(=O)[C@@H](NC(=O)[C@H](CO)NC(=O)[C@H](CO)NC(=O)[C@H](Cc2c[nH]c3ccccc23)NC(=O)CNC(=O)[C@H](CO)NC(=O)[C@@H](N)Cc2c[nH]c3ccccc23)CSSC[C@@H](C(=O)NCC(=O)O)NC(=O)[C@H](CO)NC1=O | – | patients, plasma | intravenous, 5 mg/kg, thrice weekly, median | – | Tmax | 6.6 min
C/C(N)=N/C(=N\S(=O)(=O)c1ccc(C(F)(F)F)cc1)N1C[C@H](c2ccccc2)C(c2ccc(Cl)cc2)=N1 | – | male C57BL/6 mouse, lung | oral, 10 mg/kg | – | Cmax | 6730 ng/mL
O=C(Nc1cnccc1-c1ccc([18F])cc1)c1ccnc(NC(=O)C2CC2)c1 | PET imaging | FVB/NJ mice, both sexes, brain | intravenous, 10 min post-injection | – | SUV | 0.38
COc1cccc(OC)c1-c1cc(C(=O)NC2(C(=O)O)C3CC4CC(C3)CC2C4)nn1-c1ccc(C(=O)N(C)CCOCCN(C)C(=O)[C@H](CCCCNC(=O)[C@H](CC(C)C)NC(=O)C2OC2C(=O)O)NC(=O)CN2CCN(CC(=O)[O-])CCN(CC(=O)[O-])CCN(CC(=O)[O-])CC2)cc1C(C)C.[177Lu+3] (mixture of isomers) | – | mouse, HT-29 xenograft | 24 h post injection, biodistribution | relative to: tumour over brain uptake | tumour-to-brain ratio | 18

SMILES | test | system | conditions | how to read | endpoint | result
CC[C@H](C)[C@@H]1NC(=O)[C@H](Cc2ccc(O)cc2)NC(=O)CCCSC[C@@H](C(=O)N(CC(=O)N[C@@H](CC(C)C)C(=O)NCC(N)=O)Cc2ccc(F)cc2)NC(=O)[C@H](CC(N)=O)NC(=O)[C@H](CCC(N)=O)NC1=O | – | healthy human, plasma | intranasal, 50 µg every 3 h, after last dose | – | AUC(0-t) | 0.018 ng·h/mL
CC(C)[C@H](NC(=O)[C@H](Cc1c[nH]c2ccccc12)NC(=O)[C@H](CCCNC(=N)N)NC(=O)[C@H](CCCNC(=N)N)NC(=O)[C@@H](NC(=O)[C@@H](NC(=O)[C@H](CCCNC(=N)N)NC(=O)[C@@H](NC(=O)[C@@H](NC(=O)[C@H](CCCNC(=N)N)NC(=O)[C@H](CCCNC(=N)N)NC(=O)[C@@H](NC(=O)[C@H](Cc1c[nH]c2ccccc12)NC(=O)[C@H](CCCNC(=N)N)NC(=O)[C@H](CCCNC(=N)N)NC(=O)[C@@H](NC(=O)[C@H](CCCNC(=N)N)NC(=O)[C@H](CCCNC(=N)N)NC(=O)[C@@H](NC(=O)[C@H](Cc1c[nH]c2ccccc12)NC(=O)[C@H](CCCNC(=N)N)NC(=O)[C@@H](N)CCCNC(=N)N)C(C)C)C(C)C)C(C)C)C(C)C)C(C)C)C(C)C)C(C)C)C(=O)N[C@@H](CCCNC(=N)N)C(=O)N[C@@H](CCCNC(=N)N)C(=O)O | – | CD1 mouse, plasma | intravenous, 15 mg/kg, 16 h, [14C]-labelled compound | – | chloride | 100 mEq/L
CCCCN1C(=O)c2cccc3c(NCCN4CCOCC4)ccc(c23)C1=O | – | Toluene | – | – | molar extinction coefficient | 5570 M⁻¹ cm⁻¹
C=C(NC(=O)c1csc(-c2nc3c(cc2O)-c2nc(cs2)C(=O)NC(C(C)O)C(=O)NC(=C(C)OC)c2nc(cs2)C(=O)NC2c4nc(cs4)C(=O)NC(COC(=O)c4c5c6c(cccc6n4O)COC(=O)C(OC4CC(C)(O)C(N(C)C)C(C)O4)C2OC5)c2nc-3cs2)n1)C(N)=O (centres unmarked) | – | cynomolgus monkey, both sexes, plasma | intravenous infusion, 1.5 mg/kg twice daily, 0 to 30 h | – | terminal half-life | 316 ± 37.8 min
O=[N+]([O-])c1ccc(/C=N/Nc2nnc(N/N=C/c3ccc([N+](=O)[O-])o3)c3ccccc23)o1 | haemolysis | human | 1 mM, 45 min | – | haemolysis | 12.4%
O=C1CCC(N2Cc3cc(C(=O)O)c(F)cc3C2=O)C(=O)N1 (centres unmarked) | – | cynomolgus monkey, male | oral, 0.3 mg/kg parent drug, 2 h | – | plasma concentration | 7.1 ± 6.1 ng/mL
Cc1cc(-c2ccc(C(=O)[C@@H]3CCCC[C@H]3C(=O)Nc3cnn4c3C(=O)NCC4)cc2)[nH]n1 | – | human, faeces | oral, 200 mg, 0-264 h | relative to: dose | cumulative recovery of radioactivity | 79.2%
CC(C)(O)c1ncc([S@](N)(=O)=NC(=O)Nc2c3c(cc4c2CCC4)CCC3)s1 | refers to: reproductive, breast disorders | healthy human | oral, dose not given, 14 days, all active multiple doses pooled | – | subjects with TEAEs | 5%
CC(C)C[C@H](NC(=O)[C@H](CCCN)NC(=O)CNC(=O)[C@@H](NC(=O)[C@H](C)NC(=O)[C@@H]1CSCSC[C@H](NC(=O)CC[C@H](N)C(=O)O)C(=O)N[C@@H](CC(N)=O)C(=O)N[C@@H]([C@@H](C)O)C(=O)N[C@@H](C)C(=O)N[C@@H]([C@@H](C)O)C(=O)N1)[C@@H](C)O)C(=O)N[C@@H](C)C(=O)N[C@@H](CCC(=O)O)C(=O)N[C@@](C)(Cc1ccccc1)C(=O)N[C@@H](CC(C)C)C(=O)N[C@H](C(=O)N[C@@H](CCCNC(=N)N)C(=O)N[C@@H](CO)C(=O)N[C@@H](CO)C(=O)N[C@@H](CC(N)=O)C(=O)N(C)[C@@H](CC(N)=O)C(=O)N[C@@H](Cc1ccccc1)C(=O)NCC(=O)N1CCC[C@H]1C(=O)N[C@@H](CCCCNC(=O)CC[C@H](NC(=O)CC[C@H](NC(=O)CCCCCCCCCCCCCCCCCCC(=O)O)C(=O)O)C(=O)O)C(=O)N[C@@H](CC(C)C)C(=O)N1CCC[C@H]1C(=O)N1CCC[C@H]1C(=O)N[C@H](C(=O)N[C@@H](CCC(=O)O)C(=O)N[C@H](C(=O)NCC(=O)N[C@@H](CO)C(=O)N[C@@H](CC(N)=O)C(=O)N[C@H](C(=O)N[C@@H](Cc1ccc(O)cc1)C(N)=O)[C@@H](C)O)C(C)C)[C@@H](C)O)C(C)C | – | healthy human, plasma | subcutaneous, 4 mg single dose, geometric LS mean | – | AUC(0-tlast) | 209000 ng·h/mL
CSCC[C@H](N)C(=O)N[C@@H](CO)C(=O)N[C@H](C(=O)N[C@@H](C)C(=O)NCC(=O)N[C@@H](CC(C)C)C(=O)N[C@@H](CCCCN)C(=O)N[C@@H](CCCCN)C(=O)N[C@@H](CCC(N)=O)C(=O)N[C@@H](Cc1c[nH]c2ccccc12)C(=O)N[C@@H](Cc1ccc(O)cc1)C(=O)N[C@@H](CCCCN)C(=O)N[C@@H](C)C(=O)N[C@@H](CO)C(=O)N[C@@H](CCC(N)=O)C(=O)N[C@@H](CC(C)C)C(=O)N[C@H](C(=O)N[C@@H](CO)C(=O)N[C@@H](CCC(=O)O)C(=O)N[C@@H](CCCCN)C(=O)N[C@H](C(=O)NCC(=O)NCC(=O)N[C@@H](C)C(N)=O)C(C)C)C(C)C)C(C)C | circular dichroism | phosphate buffer | pH 7.4 | – | fractional helicity | 6.7%
CC(C)(C)NCC(SS(=O)(=O)O)c1ccccc1 (centres unmarked) | – | Swiss Webster mice, Schistosoma mansoni-infected | 100 mg/kg single dose on day 42 post-infection, perfusion day 56 post-infection | – | body weight | 36 g
CCCCN1C(=O)c2cccc3c(NCCCCCCCCCCN4CCOCC4)ccc(c23)C1=O | – | acetonitrile | – | – | molar extinction coefficient | 13300 M⁻¹ cm⁻¹
COCC1CN(C2CCN(c3cc(OC)c(Nc4ncc(Br)c(Nc5ccc6c(c5P(C)(C)=O)OCCO6)n4)cc3C)CC2)C1 | – | EGFR-mutant NSCLC patients, plasma | oral, 90 mg multiple doses, median | – | Tmax at steady state | 239 min
CC(=O)N([O-])CCCCCNC(=O)CCC(=O)N([O-])CCCCCNC(=O)CCC(=O)N([O-])CCCCCN.[89Zr+4] | radio-TLC | aqueous buffer | 5 d, pH 7, 37 °C, 89Zr-labelled complex, added: DTPA 1000-fold excess | – | intact complex | 72 ± 2.9%
C=CC(=O)Nc1cc(Nc2nccc(-c3cn(C)c4ccccc34)n2)c(OC)cc1N(C)CCNC | storage stability | human dried blood spots | 72 h, -80 °C, LLOQ level | – | recovery | 92.3%
CC(C)[C@@H]1NC(=O)[C@@H](CCCNC(=N)N)NC(=O)[C@H]([C@@H](C)O)NC(=O)[C@@H](CCCN)NC(=O)[C@H](Cc2cccc(F)c2)NC(=O)[C@@H](Cc2ccccc2)NC1=O | haemolysis | human | 100 µM | – | haemolysis | < 10%
CCCCN1C(=O)c2cccc3c(NCCCCCCN4CCOCC4)ccc(c23)C1=O | – | dioxane | – | – | molar extinction coefficient | 12300 M⁻¹ cm⁻¹
O=C(Nc1cnccc1-c1ccc([18F])nc1)c1ccnc(NC(=O)C2CC2)c1 | PET imaging | FVB/NJ mice, both sexes, liver | intravenous, 120 min post-injection, P-gp inhibited, added: tariquidar 15 mg/kg iv, 2 h before | – | SUV | 5.02
O=c1c2ccccc2[se]n1CCCCCCn1[se]c2ccccc2c1=O | shake-flask, RP-HPLC | phosphate-buffered saline | 24 h, pH 7.4, 25 °C | – | solubility | 0.8 ± 0.15 µg/mL (≈ 1.67 µM)
CCCCN1C(=O)c2cccc3c(NCCCN4CCOCC4)ccc(c23)C1=O | – | Toluene | – | – | molar extinction coefficient | 5320 M⁻¹ cm⁻¹

A few entries again:
SMILES | test | system | conditions | how to read | endpoint | result
O=[N+]([O-])c1ccc(/C=N/Nc2nnc(N/N=C/c3ccc([N+](=O)[O-])o3)c3ccccc23)o1 | haemolysis | human | 1 mM, 45 min | – | haemolysis | 12.4%
CCCC[C@H](OC(C)=O)c1ccccc1C(=O)O | – | Sprague-Dawley rats, both sexes, whole blood | intravenous, 1.25 mg/kg single dose | – | AUC(0-inf) | 1360 ± 190 ng·h/mL
O=C(Nc1cnccc1-c1ccc([18F])nc1)c1ccnc(NC(=O)C2CC2)c1 | PET imaging | FVB/NJ mice, both sexes, liver | intravenous, 120 min post-injection, P-gp inhibited, added: tariquidar 15 mg/kg iv, 2 h before | – | SUV | 5.02
